Measured values pooled from the literature.
Compare with care: the assays were run in different laboratories. Numbers after ± are the reported error.
bglA: bglA (Thermotoga maritima, UniProt Q08638)
UniProt Q08638, sequence (whole entry, looked up): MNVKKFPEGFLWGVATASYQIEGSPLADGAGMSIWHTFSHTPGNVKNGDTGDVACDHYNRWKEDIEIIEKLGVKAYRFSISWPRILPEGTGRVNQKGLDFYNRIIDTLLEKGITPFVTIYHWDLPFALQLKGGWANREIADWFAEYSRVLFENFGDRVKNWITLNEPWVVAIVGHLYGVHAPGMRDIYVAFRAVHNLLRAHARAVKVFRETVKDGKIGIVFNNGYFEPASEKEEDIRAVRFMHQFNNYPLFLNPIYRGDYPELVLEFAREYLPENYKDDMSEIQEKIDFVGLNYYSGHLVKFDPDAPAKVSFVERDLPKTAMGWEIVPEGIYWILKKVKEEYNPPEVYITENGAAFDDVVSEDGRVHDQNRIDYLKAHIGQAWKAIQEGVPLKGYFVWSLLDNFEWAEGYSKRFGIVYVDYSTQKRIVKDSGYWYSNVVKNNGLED
XIAP BIR3: E3 ubiquitin-protein ligase XIAP, BIR3 (XIAP, Homo sapiens, UniProt P98170)
UniProt P98170, sequence (whole entry, looked up): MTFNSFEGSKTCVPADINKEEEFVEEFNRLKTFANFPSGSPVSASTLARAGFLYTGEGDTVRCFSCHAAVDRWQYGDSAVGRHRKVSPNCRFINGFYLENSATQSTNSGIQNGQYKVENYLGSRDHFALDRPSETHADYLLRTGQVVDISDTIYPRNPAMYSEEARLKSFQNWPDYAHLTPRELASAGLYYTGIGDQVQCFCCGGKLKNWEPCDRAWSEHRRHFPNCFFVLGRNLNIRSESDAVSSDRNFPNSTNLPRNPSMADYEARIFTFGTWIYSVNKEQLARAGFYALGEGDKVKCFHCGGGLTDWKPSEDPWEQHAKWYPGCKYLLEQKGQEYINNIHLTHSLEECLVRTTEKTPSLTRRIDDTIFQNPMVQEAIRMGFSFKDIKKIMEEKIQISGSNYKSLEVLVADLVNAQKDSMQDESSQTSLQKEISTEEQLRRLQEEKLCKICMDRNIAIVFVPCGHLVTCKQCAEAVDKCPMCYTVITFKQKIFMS
DHFR: Dihydrofolate reductase (DHFR, Homo sapiens, UniProt P00374)
UniProt P00374, sequence (whole entry, looked up): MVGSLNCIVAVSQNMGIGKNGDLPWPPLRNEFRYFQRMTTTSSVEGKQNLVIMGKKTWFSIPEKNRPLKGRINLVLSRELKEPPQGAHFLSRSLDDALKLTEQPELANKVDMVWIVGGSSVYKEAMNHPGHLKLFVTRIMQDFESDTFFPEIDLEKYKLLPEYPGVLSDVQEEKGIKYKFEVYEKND
CAPN1: Calpain-1 catalytic subunit (CAPN1, Homo sapiens, UniProt P07384)
UniProt P07384, sequence (whole entry, looked up): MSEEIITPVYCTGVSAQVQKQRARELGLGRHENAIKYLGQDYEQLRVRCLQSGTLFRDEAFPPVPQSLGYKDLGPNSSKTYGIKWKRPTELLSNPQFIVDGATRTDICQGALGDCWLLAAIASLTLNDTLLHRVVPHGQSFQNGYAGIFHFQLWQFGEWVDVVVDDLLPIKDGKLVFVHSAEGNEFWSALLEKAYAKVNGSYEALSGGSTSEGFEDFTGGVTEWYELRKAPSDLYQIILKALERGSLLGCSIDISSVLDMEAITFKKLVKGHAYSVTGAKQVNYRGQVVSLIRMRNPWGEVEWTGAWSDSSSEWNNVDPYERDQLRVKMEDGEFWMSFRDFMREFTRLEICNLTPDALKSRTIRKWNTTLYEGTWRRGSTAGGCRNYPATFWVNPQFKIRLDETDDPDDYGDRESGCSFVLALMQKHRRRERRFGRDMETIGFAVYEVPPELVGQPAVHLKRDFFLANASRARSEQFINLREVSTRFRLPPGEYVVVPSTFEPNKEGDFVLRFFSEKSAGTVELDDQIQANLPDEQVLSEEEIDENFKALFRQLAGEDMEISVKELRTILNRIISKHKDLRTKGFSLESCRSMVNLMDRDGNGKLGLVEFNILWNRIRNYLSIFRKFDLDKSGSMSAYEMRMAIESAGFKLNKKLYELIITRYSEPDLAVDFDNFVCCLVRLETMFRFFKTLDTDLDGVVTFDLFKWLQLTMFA
Calpain-2 catalytic subunit: Calpain-2 catalytic subunit (Homo sapiens, UniProt P17655)
EPHA2: Ephrin type-A receptor 2 (EPHA2, Homo sapiens, UniProt P29317)
UniProt P29317, sequence (whole entry, looked up): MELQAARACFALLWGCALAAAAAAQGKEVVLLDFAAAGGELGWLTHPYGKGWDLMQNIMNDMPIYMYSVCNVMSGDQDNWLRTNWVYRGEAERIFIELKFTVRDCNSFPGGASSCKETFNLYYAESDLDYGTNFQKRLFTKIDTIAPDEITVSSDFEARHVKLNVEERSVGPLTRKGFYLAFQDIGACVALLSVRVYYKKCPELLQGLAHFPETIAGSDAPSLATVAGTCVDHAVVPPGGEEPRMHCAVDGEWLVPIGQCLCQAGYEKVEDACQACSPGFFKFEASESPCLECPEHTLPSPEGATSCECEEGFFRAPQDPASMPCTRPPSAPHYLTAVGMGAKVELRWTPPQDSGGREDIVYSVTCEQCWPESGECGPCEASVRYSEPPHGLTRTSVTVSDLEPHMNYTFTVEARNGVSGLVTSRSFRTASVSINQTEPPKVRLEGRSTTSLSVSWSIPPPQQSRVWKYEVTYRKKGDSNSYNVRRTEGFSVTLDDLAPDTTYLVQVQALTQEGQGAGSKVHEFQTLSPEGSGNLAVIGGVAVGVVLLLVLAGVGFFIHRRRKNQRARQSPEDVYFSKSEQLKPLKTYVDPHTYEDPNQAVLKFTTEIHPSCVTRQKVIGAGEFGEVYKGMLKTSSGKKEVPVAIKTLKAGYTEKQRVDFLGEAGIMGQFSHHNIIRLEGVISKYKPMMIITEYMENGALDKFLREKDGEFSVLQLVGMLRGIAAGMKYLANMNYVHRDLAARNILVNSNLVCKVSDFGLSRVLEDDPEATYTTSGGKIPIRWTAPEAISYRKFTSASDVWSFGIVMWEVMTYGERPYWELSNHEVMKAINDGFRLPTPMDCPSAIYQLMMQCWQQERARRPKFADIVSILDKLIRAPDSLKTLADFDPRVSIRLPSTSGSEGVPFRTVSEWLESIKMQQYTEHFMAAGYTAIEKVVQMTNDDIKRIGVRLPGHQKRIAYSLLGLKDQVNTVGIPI
CFTR: Cystic fibrosis transmembrane conductance regulator (CFTR, Homo sapiens, UniProt P13569)
UniProt P13569, sequence (whole entry, looked up): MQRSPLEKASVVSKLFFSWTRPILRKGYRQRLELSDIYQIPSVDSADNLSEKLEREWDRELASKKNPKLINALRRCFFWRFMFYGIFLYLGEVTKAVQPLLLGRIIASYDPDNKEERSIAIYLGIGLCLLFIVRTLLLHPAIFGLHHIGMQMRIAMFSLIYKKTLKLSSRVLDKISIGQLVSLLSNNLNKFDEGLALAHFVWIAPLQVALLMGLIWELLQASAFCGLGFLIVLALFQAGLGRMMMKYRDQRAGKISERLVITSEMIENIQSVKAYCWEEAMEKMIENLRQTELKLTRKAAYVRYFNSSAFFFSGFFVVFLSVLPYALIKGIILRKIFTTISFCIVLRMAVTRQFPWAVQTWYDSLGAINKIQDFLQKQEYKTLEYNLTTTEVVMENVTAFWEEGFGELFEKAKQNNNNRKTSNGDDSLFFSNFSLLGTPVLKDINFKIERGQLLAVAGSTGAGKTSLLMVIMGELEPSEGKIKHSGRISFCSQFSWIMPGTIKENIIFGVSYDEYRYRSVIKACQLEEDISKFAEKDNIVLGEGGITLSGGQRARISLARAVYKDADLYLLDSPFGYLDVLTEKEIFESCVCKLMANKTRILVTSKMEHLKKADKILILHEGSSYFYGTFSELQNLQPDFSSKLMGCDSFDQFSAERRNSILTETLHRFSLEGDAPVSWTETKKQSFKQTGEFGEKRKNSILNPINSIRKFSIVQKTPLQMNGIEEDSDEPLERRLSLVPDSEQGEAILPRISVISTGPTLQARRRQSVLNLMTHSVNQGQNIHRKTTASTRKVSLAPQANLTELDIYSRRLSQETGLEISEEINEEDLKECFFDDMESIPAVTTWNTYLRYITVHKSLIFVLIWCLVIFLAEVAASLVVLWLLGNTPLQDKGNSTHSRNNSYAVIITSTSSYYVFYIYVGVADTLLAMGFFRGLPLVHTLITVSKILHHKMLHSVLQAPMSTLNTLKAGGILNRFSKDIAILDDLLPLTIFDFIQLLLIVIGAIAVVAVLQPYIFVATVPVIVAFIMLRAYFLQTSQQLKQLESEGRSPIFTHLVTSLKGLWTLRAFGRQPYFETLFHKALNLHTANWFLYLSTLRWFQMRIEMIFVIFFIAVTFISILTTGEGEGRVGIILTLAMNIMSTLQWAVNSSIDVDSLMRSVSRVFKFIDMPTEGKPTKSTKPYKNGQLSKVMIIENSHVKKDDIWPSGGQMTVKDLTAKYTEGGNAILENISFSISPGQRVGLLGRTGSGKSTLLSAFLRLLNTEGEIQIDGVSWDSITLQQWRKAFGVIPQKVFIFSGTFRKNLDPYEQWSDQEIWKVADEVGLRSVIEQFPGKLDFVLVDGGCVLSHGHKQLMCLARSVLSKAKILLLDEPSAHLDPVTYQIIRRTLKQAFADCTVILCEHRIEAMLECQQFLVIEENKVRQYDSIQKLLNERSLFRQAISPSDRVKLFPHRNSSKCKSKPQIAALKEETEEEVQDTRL
Astl: Astacin-like metalloendopeptidase (Astl, Mus musculus, UniProt Q6HA09)
GLAA: Glucoamylase (GLAA, Aspergillus niger, UniProt P69328)
UniProt P69328, sequence (whole entry, looked up): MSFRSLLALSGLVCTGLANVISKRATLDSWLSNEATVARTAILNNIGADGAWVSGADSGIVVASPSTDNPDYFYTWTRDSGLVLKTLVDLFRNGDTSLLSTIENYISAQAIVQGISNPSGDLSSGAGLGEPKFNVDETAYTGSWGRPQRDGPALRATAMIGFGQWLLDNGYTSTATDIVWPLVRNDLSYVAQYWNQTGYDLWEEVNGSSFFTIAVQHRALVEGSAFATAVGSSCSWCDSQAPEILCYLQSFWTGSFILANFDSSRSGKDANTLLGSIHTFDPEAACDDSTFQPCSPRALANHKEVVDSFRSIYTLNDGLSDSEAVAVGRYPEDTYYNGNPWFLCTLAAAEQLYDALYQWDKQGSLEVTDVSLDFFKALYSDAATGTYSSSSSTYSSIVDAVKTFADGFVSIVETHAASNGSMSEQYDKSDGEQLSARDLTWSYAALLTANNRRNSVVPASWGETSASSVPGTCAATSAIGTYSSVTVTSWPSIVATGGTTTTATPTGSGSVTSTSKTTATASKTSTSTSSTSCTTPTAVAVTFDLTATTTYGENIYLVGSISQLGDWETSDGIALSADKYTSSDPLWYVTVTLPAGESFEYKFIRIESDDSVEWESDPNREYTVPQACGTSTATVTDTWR
DRD2: D(2) dopamine receptor (DRD2, Homo sapiens, UniProt P14416)

`CCCCCCCC/N=C1/SC[C@@H]2[C@@H](O)[C@H](O)[C@@H](O)[C@@H](CCC)N12` gave a Ki of 280 ± 25 µM (bglA; competitive inhibitor; added: p-nitrophenyl glucopyranoside).
With `CCC(=O)[C@@H]1[C@H]2[C@H](O)[C@@H](O)[C@H](O)[C@@H](CO)[C@@H]12` the Ki was 88.9 µM (bglA; enzyme activity, inhibitor, Lineweaver-Burk; pH 6.8, 25 °C, added: p-nitrophenyl β-D-glucopyranoside).
`COc1ccc(CCC(=O)Nc2nc3ccc(CCC(=O)NCCOCCOCC(=O)N[C@H](C(=O)N4C[C@H](O)C[C@H]4C(=O)NCc4ccc(-c5scnc5C)cc4)C(C)(C)C)cc3s2)cc1OC` gave a Ki of 0.1 µM (Squalene synthase (Homo sapiens, UniProt P37268); ligand displacement, FP).
The Ki of `CNC(=O)C1CCN(c2cc(C)c(F)cc2NC(=O)c2ccc(-c3cc(O)ccc3C)c(C)c2)CC1` is reported as over 1 µM (EPHA7 (Homo sapiens, UniProt Q15375); binding, LanthaScreen kinase binding).
`[N-]=[N+]=N[C@H]1C[C@H](n2cnc3c(N)nc(N)nc32)O[C@@H]1COP(=O)(O)OP(=O)(O)OP(=O)(O)O` has a Ki of 0.26 µM (TERT (Homo sapiens, UniProt O14746); enzyme activity, inhibitor).
With `CN[C@@H](C)C(=O)N[C@H]1CN(C(=O)Cc2ccccc2)CC[C@H]2CC[C@@H](C(=O)NCc3ccc(OC)cc3)N2C1=O` the Ki was 16.3 µM (XIAP BIR3; ligand displacement, FP).
For `Cc1ccc(C(=O)c2ccc(NC(=O)c3ncn(-c4ccc(Cl)cc4)n3)cc2)cc1`, Ki read “no binding” (CNR1 (Homo sapiens, UniProt P21554); binding).
`O=C(O)c1ccc2[nH]c(-c3ccc(OCC(O)COc4ccc(-c5nc6cc(C(=O)O)ccc6[nH]5)cc4)cc3)nc2c1` has a Ki of 3.5 ± 1.1 µM (Beta-lactamase (Escherichia coli, UniProt Q8VNN1); inhibitor).
`CCCCCCCC[C@H]1N[C@H](CO)[C@@H](O)[C@H](O)[C@H]1O` has a Ki of 29 ± 3 µM (bglA; competitive inhibitor; added: p-nitrophenyl glucopyranoside).
`CC1(C)NC(N)=Nc2nc3ccccc3n21` gave a Ki of 3.78 µM (DHFR; inhibitor).
The Ki of `CN(C)CCN(Cc1ccncc1)Cc1c(Cl)cccc1Cl` is reported as 0.668 µM (SLC6A4 (Homo sapiens, UniProt P31645); ligand displacement, radioligand; cell membranes).
The Ki of `CCC(NC(=O)C(CC(C)C)NC(=O)Nc1ccncc1)C(=O)C(=O)NCc1cc(OC)cc(OC)c1` (centres unmarked) is reported as 0.221 µM (CAPN1; enzyme activity, inhibitor, fluorescence).
`CNc1ccccc1C(=O)O[C@H]1[C@@H](O)[C@H](n2ccc(=O)[nH]c2=O)O[C@@H]1COP(=O)(O)OP(=O)(O)O` gave a Ki of 0.39 ± 0.05 µM (ADCY1 (Bos taurus, UniProt P19754); adenylyl cyclase activity, inhibitor; Sf9 membranes; added: 5 mM MnCl2, 100 µM forskolin).
The Ki of `CCC(NC(=O)C(CC(C)C)NC(=O)NCc1ccccc1)C(=O)C(=O)NCc1cccc(OC)c1` (centres unmarked) is reported as 0.047 µM (Calpain-2 catalytic subunit; enzyme activity, inhibitor, fluorescence).
`CNC(=O)c1cc(C)ccc1NC(=O)c1ccc(-c2c(C)ccc3[nH]ncc23)c(C)c1` gave a Ki of 0.0141 µM (EPHA2; enzyme activity, inhibitor).
The Ki of `Cc1ccc(CC(=O)N/N=C/c2cc(Br)c(O)c(Br)c2O)cc1` is reported as 10 µM (CFTR; chloride current, inhibitor, short-circuit current; FRT; basolateral membrane permeabilized).
`O=C(CCN(Cc1ccc(Cl)c(O)c1F)Cc1ccc(Cl)c(O)c1F)NO` has a Ki of 0.49 ± 0.06 µM (Astl; enzyme activity, inhibitor, fluorogenic; pH 7.4, 37 °C, apparent Ki, Morrison equation, added: 25 µM substrate).
`CCC(C)N(C)C(=O)C(C)Cc1cc(-c2ccccc2)nc2ccccc12` (centres unmarked) gave a Ki of 0.005 ± 0.003 µM (Tspo (Rattus norvegicus, UniProt P16257); binding, radioligand displacement; rat brain homogenate).
`CCC(NC(=O)C(CC(C)C)NC(=O)NCc1ccc(C#N)cc1)C(=O)C(=O)NCc1cc(OC)cc(OC)c1` (centres unmarked) gave a Ki of 0.137 µM (Calpain-2 catalytic subunit; enzyme activity, inhibitor, fluorescence).
`CCC[C@@H]1[C@H](O)[C@@H](O)[C@H](O)[C@@H](CO)N1C(=S)NCc1ccc(OC)cc1` gave a Ki of 842 µM (GLAA; enzyme activity, inhibitor).
`CN[C@@H](C)C(=O)N[C@H]1CN(C(=O)Cc2ccccc2)CC[C@H]2CC[C@@H](C(=O)NCc3cccc(Cl)c3)N2C1=O` gave a Ki of 1.02 µM (XIAP BIR3; ligand displacement, FP).
For `Cc1cc2nc3n(c2cc1C)C(C)(C)NC(N)=N3`, the Ki was 1.05 µM (DHFR; inhibitor).
The Ki of `CCCCCCCCNC(=S)N1[C@H](CCCCCCCC)[C@H](O)[C@@H](O)[C@H](O)[C@H]1CO` is reported as 455 µM (GLAA; enzyme activity, inhibitor).
With `CC[C@H](C)[C@H](NC(C)=O)C(=O)N1CCC[C@H]1C(=O)N1CCC[C@H]1C(=O)N[C@@H](CCCCN)C(=O)N[C@@H](Cc1ccc(O)cc1)C(=O)N[C@@H](CCCNC(=N)N)C(=O)N[C@@H](CCC(=O)O)C(=O)N[C@@H](CC(C)C)C(=O)N[C@@H](CC(C)C)C(=O)N[C@@H](C)C(N)=O` the Ki was over 100 µM (CAPN1; enzyme activity, inhibitor, fluorescence; pH 7.5).
`COc1cccc(C(=O)CC(N)C(=O)O)c1` (centres unmarked) has a Ki of 175 µM (Kynureninase (Rattus norvegicus, UniProt P70712); inhibitor).
With `CCC[C@@H]1[C@H](O)[C@@H](O)[C@H](O)[C@@H](CO)N1C(=S)NCc1ccc(C(F)(F)F)cc1` the Ki was over 2000 µM (bglA; competitive inhibitor; added: p-nitrophenyl glucopyranoside).
`N=C(N)NCC(=O)NCC1(Nc2ccccc2)CCCN(Cc2ccccc2)C1` (centres unmarked) has a Ki of 1.89 µM (Neuropeptide FF receptor 2 (Homo sapiens, UniProt Q9Y5X5); cell-free assay).
With `CCOC(=O)C(NC(=O)c1oc(=O)c2ccccc2c1-c1ccc(C)cc1)C(=O)OCC` the Ki was about 7 µM (CFTR; concentration not given).
`CCC(NC(=O)C(CC(C)C)NC(=O)CCc1ccccc1)C(=O)C(=O)NCc1cc(OC)cc(OC)c1` (centres unmarked) has a Ki of 0.134 µM (CAPN1; enzyme activity, inhibitor, fluorescence).
With `C/C=C/C[C@@H](C)[C@@H](O)[C@H]1C(=O)N[C@@H](CC)C(=O)N(C)C(Cc2ccc(C(=O)NCCOCCNC(=O)CC[P+](c3ccccc3)(c3ccccc3)c3ccccc3)cc2)C(=O)N(C)[C@@H](CC(C)C)C(=O)N[C@@H](C(C)C)C(=O)N(C)[C@@H](CC(C)C)C(=O)N[C@@H](C)C(=O)N[C@H](C)C(=O)N(C)[C@@H](CC(C)C)C(=O)N(C)[C@@H](CC(C)C)C(=O)N(C)[C@@H](C(C)C)C(=O)N1C` (some centres unmarked) the Ki was 0.005 µM (Peptidyl-prolyl cis-trans isomerase F, mitochondrial (Ppif, Rattus norvegicus, UniProt P29117); PPIase activity, inhibitor; pH 7.5, 15 °C).
`CC[C@H](C)[C@H](NC(=O)[C@@H](NC(=O)[C@H](CO)NC(=O)[C@@H](NC(=O)[C@H](CCC(N)=O)NC(=O)[C@H](CCSC)NC(=O)[C@@H](N)CS)[C@@H](C)O)[C@@H](C)CC)C(=O)O` gave a Ki of 166 ± 104 µM (Na(+)/H(+) exchange regulatory cofactor NHE-RF2, PDZ domain 2 (Homo sapiens, UniProt Q15599); binding to PDZ2 domain, inhibitor, fluorescence polarization).
`O=C(CCN(Cc1cccnc1)Cc1ccc(Cl)c(O)c1F)NO` has a Ki of 3.13 ± 0.01 µM (Astl; enzyme activity, inhibitor, fluorogenic; pH 7.4, 37 °C, apparent Ki, Morrison equation, added: 25 µM substrate).
The Ki of `CCCCNC(=S)N1[C@H](CCC)[C@H](O)[C@@H](O)[C@H](O)[C@H]1CO` is reported as over 2000 µM (bglA; competitive inhibitor; added: p-nitrophenyl glucopyranoside).
With `CSCC[C@H](NC(=O)[C@@H](N)CS)C(=O)N[C@@H](CCC(N)=O)C(=O)N[C@H](C(=O)N[C@@H](CO)C(=O)N[C@@H](CCCCN)C(=O)N[C@@H](CC(C)C)C(=O)O)[C@@H](C)O` the Ki was 31.7 ± 8.9 µM (Na(+)/H(+) exchange regulatory cofactor NHE-RF2, PDZ domain 1 (Homo sapiens, UniProt Q15599); binding to PDZ1 domain, inhibitor, fluorescence polarization).
The Ki of `CNC(=O)C1CCN(c2ccccc2NC(=O)c2ccc(-c3cc(O)ccc3C)c(C)c2)CC1` is reported as 0.0006 µM (EPHA2; enzyme activity, inhibitor).
`Nc1ncnc2c1ncn2[C@@H]1O[C@H](COP(=O)(O)NP(=O)(O)OP(=O)(O)O)[C@@H](O)[C@H]1O` has a Ki of 0.9 µM (MAT2A (Homo sapiens, UniProt P31153); enzyme activity, inhibitor).
With `C#CCOC(=O)[C@]1(C)C=C(C(=O)OC(C)(C)C)C(=O)CC1` the Ki was 1 µM (MAPK1 (Homo sapiens, UniProt P28482); ligand displacement, FP).
The Ki of `CN(CCNc1ncc(C#N)cc1Cl)Cc1ccc(F)cc1` is reported as 8.61 µM (DRD2; ligand displacement, radioligand).
For `Cc1cc(N2CCCCC2)c(NC(=O)c2ccc(-c3cc(O)ccc3C)c(C)c2)cc1F`, the Ki was over 0.25 µM (EPHA2).
With `CCCc1nc(C(C)(C)O)c(C(=O)O)n1Cc1ccc(-c2ccccc2-c2nnn[nH]2)cc1` the Ki was 0.0053 µM (AGTR1 (Homo sapiens, UniProt P30556); cell-free assay).
`CCOC(=O)c1nn(-c2ccccc2)cc1CN(C)[C@@H]1CCSC1` gave a Ki of over 10 µM (DRD2; ligand displacement, radioligand).

Some of these lines once more:
`CCC(C)N(C)C(=O)C(C)Cc1cc(-c2ccccc2)nc2ccccc12` (centres unmarked) gave a Ki of 0.005 ± 0.003 µM (Tspo (Rattus norvegicus, UniProt P16257); binding, radioligand displacement; rat brain homogenate).
With `CCCc1nc(C(C)(C)O)c(C(=O)O)n1Cc1ccc(-c2ccccc2-c2nnn[nH]2)cc1` the Ki was 0.0053 µM (AGTR1 (Homo sapiens, UniProt P30556); cell-free assay).
`COc1cccc(C(=O)CC(N)C(=O)O)c1` (centres unmarked) has a Ki of 175 µM (Kynureninase (Rattus norvegicus, UniProt P70712); inhibitor).
The Ki of `CN(C)CCN(Cc1ccncc1)Cc1c(Cl)cccc1Cl` is reported as 0.668 µM (SLC6A4 (Homo sapiens, UniProt P31645); ligand displacement, radioligand; cell membranes).
